Results pooled from the literature.
Lines come from different studies, so protocols differ.
Technique: steady-state kinetics
B1: YjiA C66A/C67A/E37A (Escherichia coli, UniProt P24203); chain MNPIAVTLLTGFLGAGKTTLLRHILNEQHGYKIAVIANEFGEVSVDDQLIGDRATQIKTLTNGCIAASRSNELEDALLDLLDNLDKGNIQFDRLVIECTGMADPGPIIQTFFSHEVLCQRYLLDGVIALVDAVHADEQMNQFTIAQSQVGYADRILLTKTDVAGEAEKLHERLARINARAPVYTVTHGDIDLGLLFNTNGFMLEENVVSTKPRFHFIADKQNDISSIVVELDYPVDISEVSRVMENLLLESADKLLRYKGMLWIDGEPNRLLFQGVQRLYSADWDRPWGDEKPHSTMVFIGIQLPEEEIRAAFAGLRK
B2: GLYR2 (Arabidopsis thaliana, UniProt F4I907); chain STRDELGTVSIGFLGMGIMGSPMAQNLIKAGCDVTVWNRTKSKCDPLVGLGAKYKSSPEEVTATCDLTFAMLADPESAIDVACGKNGAIFGISSGKGYVDVSTVDVASSILISKQIKDTGALFLEAPVSGSKKPAEDGQLIFLTAGDKPLYEKAAPFLDIMGKSKFYLGEVGNGAAMKLVVNMIMGSMMASFAEGILLSQKVGLDPNVLVEVVSQGAINAPMYSLKGPSMIKSVYPTAFPLKHQQKDMRLALGLAESVSQSTPIAAAANELYKVAKSYGLSDEDFSAVIEALKAAKSREA
B3: Lxyl-p1-1 V91S (Lentinula edodes, UniProt G8GLN9); chain YFSGLGLGSERSIFRRDLNSTGDESNSTQWPAPLANGGKSWASAFKKAKSTVAEMTVEELANITSGVIGLCSGVTGAVTRLGIPELCLQDGPIGPRGVHGSSQFPAGLTVAATWDRTLMYARARGMGQEFHDQGVHIALAPVTGGPLGRTPLNGRGWEGTFADPYACGEASYQSVKGLTDAGVATVSKHWIAYEQETSRNLYIEFDGVSQADIQLPISSNVDDLTMHELYMWSFAEAVRAGTNHIMCSYNRINNTHSCNNAKGLNQLLKTELNFQGGVVSDWGGQWDSVLSAENGLDVGMPGEGFLGELGDFWGTTLADLINNGTVSEDLVRDKVVRLLTGYYYLGQDINPPPPFVYNTIGAPTLNATSGYRNVRKPGTAELIKEIGSASVTLLKNTGSLPLKHPQRIAVLGNDATYNVLGPNACGLANSACDIDNLNGTLTTGGGSGSALSPYTITPLEALQKRAIEDNAEIAAVVANSNTTTGAEDAIAALLPDADVTFVFLNRYSEEGADAPDFSLGGDGDNLMDLAVTYSSNVVVVIHTTGVVDIEKWADNPNVTAILVAYLPGQEAGNSLVPVLYGDVAPSGKLPWTWGKSIDDYVPNGVVYTDAYSPQSNFTEGVFIDYRWFDKMGITPRYEFGFGLSYTTFTYSNLIVDHGRWAKDYSSVMETAEPFAEWDGTNSLYDVIFTVFATITNTGNLTGSEVAQLYISIPGDNQPVRQLRGFDKIKDLPVGDSAVVTFPIRRKDVSSWSVVDQLWYVPNGDFLISVGGSSRDLPLNTTWTP
B4: UGT84B1 (Arabidopsis thaliana, UniProt O22182); chain MGSSEGQETHVLMVTLPFQGHINPMLKLAKHLSLSSKNLHINLATIESARDLLSTVEKPRYPVDLVFFSDGLPKEDPKAPETLLKSLNKVGAMNLSKIIEEKRYSCIISSPFTPWVPAVAASHNISCAILWIQACGAYSVYYRYYMKTNSFPDLEDLNQTVELPALPLLEVRDLPSFMLPSGGAHFYNLMAEFADCLRYVKWVLVNSFYELESEIIESMADLKPVIPIGPLVSPFLLGDGEEETLDGKNLDFCKSDDCCMEWLDKQARSSVVYISFGSMLETLENQVETIAKALKNRGLPFLWVIRPKEKAQNVAVLQEMVKEGQGVVLEWSPQEKILSHEAISCFVTHCGWNSTMETVVAGVPVVAYPSWTDQPIDARLLVDVFGIGVRMRNDSVDGELKVEEVERCIEAVTEGPAAVDIRRRAAELKRVARLALAPGGSSTRNLDLFISDITIA
B5: sbnA (Staphylococcus aureus, UniProt A6QDA0); chain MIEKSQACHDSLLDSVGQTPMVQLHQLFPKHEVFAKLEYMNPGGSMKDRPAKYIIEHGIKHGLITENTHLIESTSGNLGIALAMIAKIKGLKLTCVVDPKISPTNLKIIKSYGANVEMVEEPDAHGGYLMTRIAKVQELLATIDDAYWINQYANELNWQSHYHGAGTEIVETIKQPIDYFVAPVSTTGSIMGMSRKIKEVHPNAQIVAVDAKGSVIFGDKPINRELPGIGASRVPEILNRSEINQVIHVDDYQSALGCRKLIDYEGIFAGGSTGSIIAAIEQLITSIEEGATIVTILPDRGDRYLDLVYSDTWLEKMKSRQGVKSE
B6: enzyme H189D (Acetivibrio thermocellus, UniProt A3DJ38); chain MKLTIPELSLVVLIGSSGSGKSTFAKKHFKPTEVISSDFCRGLVSDDENDQTVTGAAFDVLHYIVSKRLQLGKLTVVDATNVQESARKPLIEIAKDYHCFPVAVVFNLPEKVCQERNKNRTDRQVEEYVIRKHTQQLKKSIKGLQREGFRYVYILNSPEEVEEVVFERQPLWNNKKDEHGPFDIIGDIDGCYDELKMLLEKLGYLIEEVEGGVGSGKYRVTHPEGRKVLFLGDLVDRGPKITEVLKLVMGMVKSGIALCVPGNHDVKLLRKLNGRDVQITHGLDRTLEQLAKEPQEFIEEVKAFIDGLVSHYVLDDGKLVVAHAGMKEEFQGRGSGKVREFALYGETTGETDEYGLPVRYDWASDYRGKALVVYGHTPQAEVLKVNNTINIDTGCVFGGKLTAYRYPEREIVDVKALKTYYEPAKPFLPKEDMAERFEARTDNDILDINDVLGKKIITTRLMSSITIHEENSIAALEVMSRFAADPHWLIYLPPTMSPCETSKKEGMLEHPIEAFEYFRTRGVGKVVCEQKHMGSRAVVIVCKDSQVAEKRFGVLDGTAGICYTRTGRHFFDDMQLEAELIDRVRKVLDKSGFWGDFNTDWVCLDCELMPWSAKAQKLLEEQYSAVGISGRVVLDEAVKLLKQASLNKTVSFDVSRQTSGKNADINELLQRFTERSEMMQKYVEAYRKYCWPVNSIDDLKLAPFHILATEGKVHSDKNHIWHMDTIAKYCTQDDSLIMATNHILVDVTDAESVDKGIKWWEDLTASGGEGMVVKPYDFIVKNGRELLQPAVKCRGREYLRIIYGPEYTMDENIERLRNRAVGKKRSLALREFSLGMEALERFVRNEPLYRVHECVFGVLALESEPVDPRL
B7: enzyme L163H/N249W (Thermobifida fusca, UniProt Q47RK4); chain MTDVYILDAVRTPFGRYGGALSGIRPDDLAAHVLRALAERSPGLDPAAVDDVFFGDANGAGEDNRNVARMAALLAGWPTSVPGVTLNRLCGSGMESVIAANRAIAVGDASLAVAGGVESMSRAPWVLPKPAQGFPTGHETLYSTTLGWRMVNPAMPEQWTVSHGESTEQVAATYGISRAEQDAFALRSHERAARAWAEGVFDAEITQIPGAELERDESIRETSAEKLAALKPAFRPDGTITAGNASPLWDGAAALLIGDAAAAERVGREPLARIVSRGVAAVDPDVFGIGPVQAAEIALRRAGIGWDDLSVVELNEAFAAQSLACLKLWPDLDPEIVNPNGGAIAIGHPLGASGARIVGTLAHELHRRGGGWGLAAICIGVGQGLAVVLHR
B8: nitrilase Y142V (Rhodococcus rhodochrous, UniProt A4LA85); chain MVEYTNTFKVAAVQAQPVWFDAAKTVDKTVSIIAEAARNGCELVAFPEVFIPGYPYHIWVDSPLAGMAKFAVRYHENSLTMDSPHVQRLLDAARDHNIAVVVGISERDGGSLYMTQLIIDADGQLVARRRKLKPTHVERSVVGEGNGSDISVYDMPFARLGALNCWEHFQTLTKYAMYSMHEQVHVASWPGMSLYQPEVPAFGVDAQLTATRMYALEGQTFVVCTTQVVTPEAHEFFCENEEQRKLIGRGGGFARIIGPDGRDLATPLAEDEEGILYADIDLSAITLAKQAADPVGHYSRPDVLSLNFNQRRTTPVNTPLSTIHATHTFVPQFGALDGVRELNGADEQRALPSTHSDETDRATASI
B9: TcC (Trypanosoma cruzi, UniProt Q4DGA3); chain MPREYEFAEKILFTEEEIRTRIMEVAKRIADDYKGKGLRPYVNPLVLISVLKGSFMFTADLCRALSDFNVPVRMEFICVSSYGEGVTSSGQVRMLLDTRHSIEGHHVLIVEDIVDTALTLNYLYHMYFTRRPASLKTVVLLDKREGRRVPFSADYVVANIPNAFVIGYGLDYDDTYRELRDIVVLRPEVYAEREAARQKKQRAIGSADTDRDAKREFHSKY
B10: enzyme E217L/L163H/N249W (Thermobifida fusca, UniProt Q47RK4); chain MTDVYILDAVRTPFGRYGGALSGIRPDDLAAHVLRALAERSPGLDPAAVDDVFFGDANGAGEDNRNVARMAALLAGWPTSVPGVTLNRLCGSGMESVIAANRAIAVGDASLAVAGGVESMSRAPWVLPKPAQGFPTGHETLYSTTLGWRMVNPAMPEQWTVSHGESTEQVAATYGISRAEQDAFALRSHERAARAWAEGVFDAEITQIPGAELERDLSIRETSAEKLAALKPAFRPDGTITAGNASPLWDGAAALLIGDAAAAERVGREPLARIVSRGVAAVDPDVFGIGPVQAAEIALRRAGIGWDDLSVVELNEAFAAQSLACLKLWPDLDPEIVNPNGGAIAIGHPLGASGARIVGTLAHELHRRGGGWGLAAICIGVGQGLAVVLHR

Molecule = B1 (YjiA C66A/C67A/E37A); substrate = Nc1nc2c(ncn2[C@@H]2O[C@H](COP(=O)(O)OP(=O)(O)OP(=O)(O)O)[C@@H](O)[C@H]2O)c(=O)[nH]1; pH = pH 7.6; temperature = 37 °C; setting = apo, anaerobic; together with = MgCl2 5 mM; Km = 100 µM
Molecule = CYP26B1 (Homo sapiens, UniProt Q9NR63); substrate = CC1=C(/C=C/C(C)=C/C=C/C(C)=C/C(=O)O)C(C)(C)CCC1; temperature = 37 °C; setting = not purified; Km = 0.019 µM
Molecule = B2 (GLYR2); substrate = NC(=O)C1=CN([C@@H]2O[C@H](COP(=O)(O)OP(=O)(O)OC[C@H]3O[C@@H](n4cnc5c(N)ncnc54)[C@H](OP(=O)(O)O)[C@@H]3O)[C@@H](O)[C@H]2O)C=CC1; pH = pH 7.6; temperature = 30 °C; setting = cofactor varied; Km = 1.4 µM
Molecule = dnrK (Streptomyces peucetius, UniProt Q06528); substrate = O=[N+]([O-])c1ccc(O)c(Cl)c1; pH = pH 8; temperature = 37 °C; Km = 106 µM
Molecule = B3 (Lxyl-p1-1 V91S); substrate = [H][C@]12[C@H](OC(=O)c3ccccc3)[C@]3(O)C[C@H](OC(=O)[C@H](O)[C@@H](NC(=O)c4ccccc4)c4ccccc4)C(C)=C([C@@H](O)C(=O)[C@]1(C)[C@@H](O[C@@H]1OC[C@@H](O)[C@H](O)[C@H]1O)C[C@@]1([H])OC[C@@]21OC(C)=O)C3(C)C; Km = 760 µM
Molecule = B4 (UGT84B1); substrate = O=C(O)Cc1ccccc1; pH = pH 7.5; temperature = 30 °C; Km = 32.3 µM
Molecule = ACHE (Homo sapiens, UniProt P22303); substrate = CC(=O)SC[N+](C)(C)C; pH = pH 7; temperature = 25 °C; setting = apparent; Km = 470 µM
Molecule = enzyme (Deinococcus radiodurans, UniProt P56926); substrate = NC(=O)CC[C@H](N)C(=O)O; pH = pH 7.2; temperature = 37 °C; Km = 168 µM
Molecule = B5 (sbnA); substrate = N[C@@H](CCC(=O)O)C(=O)O; pH = pH 8; temperature = 25 °C; together with = OPS; Km = 3200 µM
Molecule = B6 (enzyme H189D); substrate = Nc1ncnc2c1ncn2[C@@H]1O[C@H](CO)[C@H]2OP(=O)(O)O[C@H]21; pH = pH 7.5; temperature = 45 °C; Km = 20000 µM
Molecule = B7 (enzyme L163H/N249W); substrate = CC(C)(COP(=O)(O)OP(=O)(O)OC[C@H]1O[C@@H](n2cnc3c(N)ncnc32)[C@H](O)[C@@H]1OP(=O)(O)O)[C@@H](O)C(=O)NCCC(=O)NCCSC(=O)CCC(=O)O; pH = pH 7.4; temperature = 37 °C; Km = 1140 µM
Molecule = B8 (nitrilase Y142V); substrate = Cc1cccc(C#N)c1; pH = pH 7.5; temperature = 25 °C; Km = 470 µM
Molecule = B9 (TcC); substrate = Oc1ncnc2[nH]ncc12; pH = pH 8.3; temperature = 37 °C; setting = apparent; together with = PRPP 1 mM, MgCl2 12 mM; Km = 213 µM
Molecule = protein (Micromonospora echinospora, UniProt Q8KND2); substrate = CC(=O)NCCSC(=O)c1c(C)cc(O)cc1O; pH = pH 8; temperature = 35 °C; Km = 1270 µM
Molecule = B10 (enzyme E217L/L163H/N249W); substrate = CC(C)(COP(=O)(O)OP(=O)(O)OC[C@H]1O[C@@H](n2cnc3c(N)ncnc32)[C@H](O)[C@@H]1OP(=O)(O)O)[C@@H](O)C(=O)NCCC(=O)NCCSC(=O)CCCC(=O)O; pH = pH 7.4; temperature = 37 °C; Km = 2200 µM
Molecule = enzyme (Allochromatium vinosum, UniProt P45370); substrate = CC(C)(COP(=O)(O)OP(=O)(O)OC[C@H]1O[C@@H](n2cnc3c(N)ncnc32)[C@H](O)[C@@H]1OP(=O)(O)O)[C@@H](O)C(=O)NCCC(=O)NCCSC(=O)C[C@H](O)CN=[N+]=[N-]; pH = pH 7.8; temperature = 30 °C; Km = 70 µM

A few entries again:
Molecule = B3 (Lxyl-p1-1 V91S); substrate = [H][C@]12[C@H](OC(=O)c3ccccc3)[C@]3(O)C[C@H](OC(=O)[C@H](O)[C@@H](NC(=O)c4ccccc4)c4ccccc4)C(C)=C([C@@H](O)C(=O)[C@]1(C)[C@@H](O[C@@H]1OC[C@@H](O)[C@H](O)[C@H]1O)C[C@@]1([H])OC[C@@]21OC(C)=O)C3(C)C; Km = 760 µM
